Results pooled from the literature.
A part holds a random share of what one study measured.

Study 1
Target: Hepatocyte nuclear factor 3-alpha (Foxa1, Mus musculus, UniProt P35582, residues 1-468, full length assumed)
Method: EMSA with sequencing
Form: double-stranded DNA, one strand shown
Matrix: in vitro
Concentration: 10 and 20 nM
Notes: whole designed probe, mean of two concentrations, ends assumed
Relative to: negative control set to 0
Reading: higher = stronger binding
Constant ends, left off below: GTGAGCGGTGCCCATTGATGGGGAAC … TTTCACTGGGATCGTGGGGAC
Residues (chain): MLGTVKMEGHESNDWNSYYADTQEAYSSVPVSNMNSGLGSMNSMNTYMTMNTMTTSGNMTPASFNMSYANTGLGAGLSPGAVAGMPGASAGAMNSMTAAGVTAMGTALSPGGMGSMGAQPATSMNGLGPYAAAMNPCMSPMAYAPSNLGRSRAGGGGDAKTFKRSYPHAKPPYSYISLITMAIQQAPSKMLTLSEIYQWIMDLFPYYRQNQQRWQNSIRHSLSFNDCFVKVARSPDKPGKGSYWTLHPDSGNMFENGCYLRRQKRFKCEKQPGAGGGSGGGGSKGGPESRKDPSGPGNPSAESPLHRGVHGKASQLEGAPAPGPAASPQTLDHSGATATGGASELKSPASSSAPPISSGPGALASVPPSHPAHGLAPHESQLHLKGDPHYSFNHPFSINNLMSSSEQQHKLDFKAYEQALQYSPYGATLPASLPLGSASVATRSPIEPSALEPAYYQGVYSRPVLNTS
Strand	normalised bound fraction
TTAAGTATGTTCCACAAGGAATAGTAAGTGATGGCATTCACTGAAATAGGAACTTTATCTAAATGTTTCCATGCATCCTTATTGTTATAATGAGTAATTTATAACAGTGGCCATATTAAAAATAGAATTACCCTTTTTGAATTAAAATTATGTATTTGAATTAGAAAAAAAGCATTTGAAACATGTATTTTTA	0.0702 ratio
GTCTAGCTCCAGTCTTAGCATGGCAATTTCTTCCCGCAACGTACTATTTTCATGCAAGAAGTCTTTTTCTTTCTTACAACTAAGAGAAAGCTAAGTAATCTAAGAGAACTTTTAGTTAGCACTCAATAGATTGACATATCATTATTTCTTCTGAAATTCAAAAATAACATGTATTTGTATAATGAAAGAATCC	0.11 ratio
TTAAGAAAAGTTGAAACAGGAATTGCTTGATAATCTTGAAAATATGCATGTATGTATGTTTGTTTAATGACTAAATGTATACTATTTGAGAAAGTAATTTAGGAGGGTAGGGGGCAGAAGCCAGATTCAGATTTTTGTGTGATGAAGAATGAATAAATGAATGTTTAGGAGTTGAGGAAATGGAAGAAGTGTT	0.452 ratio
TGCACCTATATAAAATATAGGTTTATTGTTCTTTGTGTCAATGGCATGTATTATTTTGGCTATTCTAGAAAAGAAATTACGTTGGAATTCCAATGTAAACATGTTTGTGTGAATCAGTAACCTTCTCTTTCTTTTGTATGTCATAAGAAAGCAACAAATGAGTTGTTAAATGCTAAAATTAAACACCATTTTA	0.323 ratio
CCAAACAACTCCCACAATGTCCTTCCTACTGATGCATAACTGGTATTTAATAACAAACTATTTGCATTTTAAATTACTTAGAGTGCACTGGAAGATTACTCTGATCTGATCATAAGAAGTATTTTGCCTTGAGGAGGAGTTATGCTGCAGACAAAATTAACTCTCGATTAAAAATTCTACATAATCTTTAAAA	0.165 ratio
ATCTTCCCCCTCTTCCTTGCCCCACCAGCTCACCTTCCCGGGTATCTGCAAATAAGTATTTATTTTCAAGCCGGCATTCGTTAACCCTCTTCTGGCGCAAACTGCCAAAGTAAACAGATCTAACATGGTCCTTTGGCGACGCCAGGCTCCGGGAGAGCAAAGCACCGTGTCAGGGCCATGATCCGGGGTGGCC	0.445 ratio
AAATTGTATGCATTTCAAGCCCTACAAAACCTGATTCCAGGAGTTGTACCATTTATCTGTGGTCATGAATTTTGTAAACAAAGCTAAGGAAAAGTCAACAGTGATTCAGGGCAGATTCGTGGCTACATGACTTCCTCCTGGGCTGGCCTGGCTGGACTGAGTGTTGAGTGGGGGTGGGTCAACACTACTCCCT	0.409 ratio
ATCTTCCCCCTCTTCCTTGCCCCACCAGCTCACCTACGGGGGTTATTTGCACAAAGGAAAATAAATAAAGCCGGCATTCGTTAACCCTCTTCTGGCGCAAACTGCTGTTTGCTCTGCATGAATCATGGTCCTTACGCGACGCCAGGCTCCGGGAGAGCAAAGCACCGTGTCAGGCGCATGATCCGGGGTGGCC	0.38 ratio

Study 2
Target: RNA binding protein fox-1 homolog 2, RRM domain, GST-SBP tag (RBFOX2, Homo sapiens, UniProt O43251-10, residues 100-194)
Method: RNA Bind-n-Seq
Form: RNA
Matrix: in vitro
Concentration: 365 nM
Notes: natural RNA segment, single round, ends assumed
Relative to: no-protein control
Reading: higher = stronger binding
Constant ends, left off below: GGGAGUUCUACAGUCCGACGAUC … UGGAAUUCUCGGGUGCCAA
Construct (chain): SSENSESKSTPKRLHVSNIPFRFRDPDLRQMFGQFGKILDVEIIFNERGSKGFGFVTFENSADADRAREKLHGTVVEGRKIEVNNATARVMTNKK
Strand	RBNS enrichment (R)
GGGUGUACGCUUGCCCUGGCUUAUGGAUUGGAAUGGGACUAAGGGGCAGCCCCAGCCCUGGGAACCUCUCCCACUACACCCACAAGACGCCACCAUGAAGCCUCAAAAGG	0.346
AAAGCCUAUCCUUAAAAAAUAAACCUGUUGAAAUGGGCUUUAAAGACAUCGAAAUAAUCACUUGUCAUGCAUUGACUGUAAAUGCAGAUAGAGAAAUAUGUCUUUGAAGC	0.489
UCUCACCCAUGAGGGACAACAGGUGACUCAGAAAGGCAGUGUCACAACUAGAACACUCUGCCUUGGUCUCCUUAUCCAGUGCUCACCCACAGUAUGAAAUGGAUGCUUCC	0.239
UGGUGUUGAUUUUCCUCCCUGCAGAGCCAAUGGUGCACAUUGGUUUAAGCCCAGAGAUCCUGCUUGAGCCCUGGACUCAUCUUGGGAAGGGCCAUGGGAGGUCCUGGCUA	0.595
UUACUAGAUCUGGAGGCAACCACAGGACACUAAACUUCUCCCAGCCUCUUCAGGAAAGAAACCUCAUUCUUUGGCAAGCAGGAGGUGACACUAGAUGGCUGUGAAUGUGA	0.518
CUGGACAUAAAUGAGACUAUUGAAGGAAGUAACGUCCCACCGUCGUGAUGCUGUGUGAGAAGAUGGCUUUGCAGACCUCCUGCGCAGUCUCUUGCACUGUGUCCAUCACC	0.259
GUUUGAUUCCUAGCAGCACAUAGAGGCUAAACCACCUGUAACUCUAGUCUCAGGGGCUCCAACAUCCGCCCUUGACCUUGGCUGGCACUGUAUGCAUGUAGUGCACAAAC	22.5
AGGUUUUUGAUCUUGCACUUUGCGAUGCAAAUUAUCUGUGUGGAGGGGAAGCGAAUGUUUCUGAACAUAAGGCUCUAAGACUCGUGUGAGGCUGAGAGUGAAUGGCAGUG	0.307
CCCCAUCCACACCAUUCUCCAUUCGAGAGACUACCCCUGUUUCAGAGCCAGUCCCCACCUAGUCCCGUCCCUGCCACCUACACCCAAGGUCUUCAGCUUUAAGUUGCUGG	0.735
ACGGUCCUCUCAAGUGUCUAUUAGAUAGGCAAUAAGAACUGCAGUGUAGCUGAGUAACAUCUUUUAGCUGACUAUAAAUCACUUUGUUUUUAAACAAGAAAAGCUGUGCU	0.315
GAGGUUGACCGGUAGACUGAAGAGGCCUUGAGAGCCUGGCCAGGUGGCUGUCCACGUGAGGUCAUAGUCACAGCAUGGAGGCCUUGAGAGCCUGGCCAGGUGGCCCUCCA	0.478
CAGGGGGCAGAAGGCACAACCAUUUCCAUGGUGUGCCGAGAGAAGGAGCUGAGGUCAGCAAGCCAGUGGUUCUUAAGAGCUGAACCUCUGGCUUUACUGUUGGAAGUUGU	0.522

Study 3
Target: Histone acetyltransferase KAT6A, both winged helices, GST fusion (KAT6A, Homo sapiens, UniProt Q92794, residues 1-181)
Method: protein binding microarray
Form: double-stranded DNA, one strand shown
Matrix: in vitro
Concentration: not given
Notes: 8-mer, flanks averaged, mean of 2 arrays, mostly near background
Relative to: not given
Reading: higher = stronger binding
Construct (chain): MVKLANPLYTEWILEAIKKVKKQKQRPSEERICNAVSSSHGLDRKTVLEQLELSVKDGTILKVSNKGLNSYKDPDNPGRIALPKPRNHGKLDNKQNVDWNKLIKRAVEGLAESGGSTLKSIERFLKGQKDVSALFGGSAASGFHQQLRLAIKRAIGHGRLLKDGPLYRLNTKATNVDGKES
Strand	E-score
CAAAGTCC	-0.114
GAAACCAC	-0.0912
ACGCGTCC	0.257
CTGATGCC	-0.0235
GAGTCTTA	0.0545
CGGCTAAG	0.275
CGGTCACG	0.212
AAGTCCCT	-0.168
AAGGCCGA	0.172
CTGTATAA	-0.1
ATCCATAG	-0.0506
GTGACCAC	-0.0322
GCGAATCC	0.0329
CCCAGTGC	-0.188
CCGACTGA	0.0425
ATGCAACA	-0.28

Study 4
Target: Interferon regulatory factor 3, full length, phosphomimetic (IRF3, Homo sapiens, UniProt Q14653, residues 1-427, S386D/S396D/S398D/S402D/T404D/S405D)
Method: protein-binding microarray
Form: double-stranded DNA, one strand shown
Matrix: in vitro
Concentration: 2540 nM top
Notes: 60-bp whole probe
Together with: salmon DNA 0.4 mg/ml
Relative to: random background probes
Reading: higher = stronger binding
Constant ends, left off below: GCCTAGCAC … GTCTTGATTCGCTTGACGCTGCTG
Construct (chain): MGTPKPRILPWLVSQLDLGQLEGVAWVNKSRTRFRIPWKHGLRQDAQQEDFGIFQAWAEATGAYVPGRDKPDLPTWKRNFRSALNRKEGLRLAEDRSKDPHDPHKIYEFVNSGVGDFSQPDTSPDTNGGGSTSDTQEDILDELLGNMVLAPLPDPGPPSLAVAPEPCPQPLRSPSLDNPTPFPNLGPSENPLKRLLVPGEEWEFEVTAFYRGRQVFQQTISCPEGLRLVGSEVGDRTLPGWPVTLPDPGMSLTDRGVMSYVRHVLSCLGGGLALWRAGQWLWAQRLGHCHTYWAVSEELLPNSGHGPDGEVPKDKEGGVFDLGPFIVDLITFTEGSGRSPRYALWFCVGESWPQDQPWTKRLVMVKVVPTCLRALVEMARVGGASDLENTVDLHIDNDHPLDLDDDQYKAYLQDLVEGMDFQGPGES
Strand	fitted relative affinity [z-score]
GACGGTTCCGGTTTCAGGACGTGCTAG	5.6
AAGACTTTGGTTTGTACACCGTGCTAG	-0.659
TTAGGACTGCTTTTCCCTTAGTGCTAG	0.298
TGTACTTTCTATCTCTGTTTGTGCTAG	3.61
ATAGATTTCGGGTATCGATTAGTGCTA	1.67
TTGGATATCGGGTATCGATTAGTGCTA	0.00637
GACTAACTGGGGTATCGAGACGTGCTA	-0.315
TACTTTCTATGTCTGTTTTTGTGCTAG	2.36
TCAAGTTTCTCCTTTGTACTGTGCTAG	1.44
GCGCCTTGATGTCTGGGTCTGTGCTAG	-0.638
TTGGGTATCGACTATCGGTTAGTGCTA	-0.146
TTAGAACTGAGTCCCGATTAGTGCTAG	-0.186
GACGATGTCAGTTCCGAGACGTGCTAG	0.621
ATGCTGGTCACTCTCTGGGCGTGCTAG	-0.226
TTAAAACTGGGGTTTCGATTAGTGCTA	1.56
TCATGAGTCACTTCTGGTACTGTGCTA	-0.189
TGTGCTTTCCTGATGGTTCTGTGCTAG	1.39
TTAGATTTCGGGACTGGATAAGTGCTA	1.52
TTAGGAATCGACACTGGGTTAGTGCTA	-0.298
GACGGTATCCATTTCCTGACGTGCTAG	5.35
GACGAACTGGGGACTGGAGACGTGCTA	-0.537
TCTCATTCCAATTCTTTTTATGTGCTA	1.97
TTAGAAATGAGACTGGATTAGTGCTAG	-0.0708
TGGGGGGATCAGGGAAACAGGTGCTAG	0.595
CGAGACCTCGTCTCTATCAAAGTGCTA	-0.423

Study 5
Target: Max dimerization protein 1, bHLH-zipper, MAX partner unstated (MXD1, Homo sapiens, UniProt Q05195, residues 56-136)
Method: protein-binding microarray
Form: double-stranded DNA, one strand shown
Matrix: in vitro
Concentration: not given
Notes: k-mer, scored over probes, only values ≥0.25
Reading: higher = stronger binding
Construct (chain): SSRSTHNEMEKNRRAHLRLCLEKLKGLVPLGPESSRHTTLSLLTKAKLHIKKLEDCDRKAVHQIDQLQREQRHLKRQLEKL
Strand	E-score
CGCGTGAG	0.291
TCACGCGA	0.323
CCCCGCCA	0.345
CGTGTCCA	0.278
CGTGCTAG	0.264
ACGCACGA	0.332
CCTTCCAC	0.254
ACCACGCG	0.462
AACCATGC	0.416
CATGTTCC	0.261
ATGTTTAC	0.279
GGCATGAC	0.253
ACGAGGAG	0.288
ATGCGTGG	0.387
GGCGCCAC	0.261
GCATGGGC	0.343
GTGACCAC	0.297
CGTGGTCA	0.336
GCGTGGTA	0.373
ATGCTTAC	0.286
CCGCATGC	0.414
ACCCTCCC	0.307
AAACCACG	0.374
AGGGCATG	0.338
CCATGCAC	0.326

Some of these lines once more (study 5):
Strand	E-score
CGTGTCCA	0.278
CGTGGTCA	0.336
CCCCGCCA	0.345
AACCATGC	0.416
CATGTTCC	0.261
ATGCGTGG	0.387
GTGACCAC	0.297
CGTGCTAG	0.264
